Experimental data collected from several papers.
Lines come from different studies, so protocols differ. ± marks the error that the study gave.
U2AF2: U2AF2 148-342 (Homo sapiens, UniProt P26368)
UniProt P26368, sequence (whole entry, looked up): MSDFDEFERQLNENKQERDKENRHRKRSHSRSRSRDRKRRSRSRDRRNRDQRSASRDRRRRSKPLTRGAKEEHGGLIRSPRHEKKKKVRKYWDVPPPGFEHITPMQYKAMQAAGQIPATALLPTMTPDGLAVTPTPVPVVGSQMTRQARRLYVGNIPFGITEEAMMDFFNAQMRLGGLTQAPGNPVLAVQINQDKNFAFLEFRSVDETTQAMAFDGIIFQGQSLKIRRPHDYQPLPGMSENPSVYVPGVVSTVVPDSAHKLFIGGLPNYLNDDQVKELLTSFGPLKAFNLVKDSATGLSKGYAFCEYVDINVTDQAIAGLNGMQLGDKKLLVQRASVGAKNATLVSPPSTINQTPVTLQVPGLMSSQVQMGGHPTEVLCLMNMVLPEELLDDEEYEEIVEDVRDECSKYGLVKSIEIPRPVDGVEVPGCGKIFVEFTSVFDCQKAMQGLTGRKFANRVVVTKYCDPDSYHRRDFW
B1: ATP synthase subunit gamma, human; sequence looked up; chain ATLKDITRRLKSIKNIQKITKSMKMVAAAKYARAERELKPARIYGLGSLALYEKADIKGPEDKKKHLLIGVSSDRGLCGAIHSSIAKQMKSEVATLTAAGKEVMLVGIGDKIRGILYRTHSDQFLVAFKEVGRKPPTFGDASVIALELLNSGYEFDEGSIIFNKFRSVISYKTEEKPIFSLNTVASADSMSIYDDIDADVLQNYQEYNLANIIYYSLKESTTSEQSARMTAMDNASKNASEMIDKLTLTFNRTRQAVITKELIEIISGAAALD
B2: spindlin-3 (human); sequence looked up; chain MKTPFGKAAAGQRSRTGAGHGSVSVTMIKRKAAHKKHRSRPTSQPRGNIVGCRIQHGWKDGDEPLTQWKGTVLDQVPVNPSLYLIKYDGFDCVYGLELHRDERVSSLEVLPNRVASSRISDTHLAEIMVGKAVEHIFETEEGSKNEWRGMVLAQAPVMNTWFYITYEKDPVLYMYQLLDDYKDGDLRILQDSNDSPLAEREPGEVIDSLVGKQVEYAKDDGSKRTGMVIHQVEAKPSVYFIKFDDDFHIYVYDLVKTS

Substance | target or system | assay | system | setting | how to read | quantity | value
pegcetacoplan | – | refers to: skin and subcutaneous disorders | patients with PNH | dose not given, phase Ib trial | – | number of TEAEs | 36
adrenomedullin | – | RP-HPLC | HALO Phenyl-hexyl column | 25 µM, formic acid/acetonitrile, 10 min gradient | – | retention time | 3.75 min
rituximab | – | – | relapsed iNHL patients | dose not given, before fourth infusion | – | serum concentration | 174 µg/mL
Pegcetacoplan | – | population PK model | human | dose not given | – | central volume, typical value | 3.96 L
UUUCUUUUU (ssRNA) | U2AF2 | sequencing of bound RNA | RNA | motif only | – | Kd | 820 nM
insulin | – | LC-MS/MS | spiked human serum | 4 h, room temperature | – | concentration | 0.0101 µg/mL
human ME2 I99V | – | enzyme activity, substrate | recombinant enzyme | pH 7.4, together with: fumarate 3 mM | – | K0.5 | 4.76 ± 0.19 mM
insulin degludec | – | – | human | subcutaneous, 0.4 IU/kg, 1 FC level, single dose, reference formulation | – | Tmax, median | 10 h
Malic enzyme 2 S121Q (human) | – | enzyme activity, substrate | recombinant enzyme | pH 7.4, together with: fumarate 3 mM | – | K0.5 | 2.11 ± 0.05 mM
durvalumab | – | – | human, plasma | intravenous, 1500 mg, cycle 4 day 1, geometric mean, together with: adavosertib 175 mg twice daily | – | Cmax | 379 µg/mL
insulin aspart | – | – | Japanese type 1 diabetes patients, serum free | subcutaneous, 0.2 U/kg single, least squares mean | – | Cmax | 0.298 nM
AUUUCCCUU (ssRNA) | U2AF2 | sequencing of bound RNA | RNA | motif only | – | Kd | 2640 nM
insulin aspart | – | ELISA after PEG precipitation, refers to: free insulin aspart | human, type 1 diabetes, serum | subcutaneous, dose not given, least squares mean | – | Cmax | 0.318 nM
insulin icodec | – | – | human moderate hepatic impairment (Child-Pugh B), serum | subcutaneous, 1.5 U/kg single dose | relative to: moderate impairment over normal function | AUC(0-inf) ratio | 1.15
human ME2 Q101T | – | enzyme activity, substrate | recombinant enzyme | pH 7.4, together with: fumarate 3 mM | – | K0.5 | 3.62 ± 0.31 mM
insulin icodec | – | – | Chinese type 2 diabetes patients | subcutaneous | relative to: steady state over first dose | accumulation ratio for AUC | 2.29
Neuropeptide Y | – | RP-HPLC | HALO RP-amide column | 25 µM, formic acid/methanol, 25 min gradient | – | retention time | 18.1 min
ACEEQNPWARYLEWLFPTETLLLEL | – | ex vivo fluorescence imaging | peptide, BALB/c mice, 4T1 tumour-bearing, muscle | intravenous, 5 nmol, 48 h post-injection | higher = more uptake | mean fluorescence intensity | 179 ± 16.1 a.u.
human ME2 Q51H | – | enzyme activity, substrate | recombinant enzyme | pH 7.4, together with: no fumarate | – | K0.5 | 6.31 ± 0.27 mM
insulin aspart | – | ELISA | human, adults with type 1 diabetes, up to 35 years, serum | subcutaneous, 0.2 U/kg | – | tmax | 0.983 h
ACEQNPIYWARYADWLFTTPLLLLDLALLVDADEGT | – | ex vivo fluorescence imaging | peptide, BALB/c mice, 4T1 tumour-bearing, 4T1 tumour | intravenous, 5 nmol, 2 h post-injection | higher = more uptake | mean fluorescence intensity | 3860 ± 1060 a.u.
B1 | CYB5R4 knockout human cells | PP4 interaction, 3xFLAG-PP4C IP-MS | – | concentration not given | relative to: CYB5R4 KO over parental | log2 fold change | -0.48
ACDDQNPWRAYLDLLFPTDTLLLDLLW | – | ex vivo fluorescence imaging | peptide, BALB/c mice, 4T1 tumour-bearing, liver | intravenous, 5 nmol, 48 h post-injection | higher = more uptake | mean fluorescence intensity | 255 ± 37.2 a.u.
B2 (spindlin-3) | PP6C (human) | co-immunoprecipitation, IP-MS | CYB5R4 knockout cells | concentration not given | relative to: CYB5R4 knockout over parental | log2 fold change | -0.72
human ME2 R91A | – | enzyme activity, substrate | recombinant enzyme | pH 7.4, together with: no fumarate | – | K0.5 | 1.88 ± 0.29 mM
